Measurements of several laboratories.
A part holds a random share of what one study measured.
Sequence of UniProt P27448 (whole entry, looked up): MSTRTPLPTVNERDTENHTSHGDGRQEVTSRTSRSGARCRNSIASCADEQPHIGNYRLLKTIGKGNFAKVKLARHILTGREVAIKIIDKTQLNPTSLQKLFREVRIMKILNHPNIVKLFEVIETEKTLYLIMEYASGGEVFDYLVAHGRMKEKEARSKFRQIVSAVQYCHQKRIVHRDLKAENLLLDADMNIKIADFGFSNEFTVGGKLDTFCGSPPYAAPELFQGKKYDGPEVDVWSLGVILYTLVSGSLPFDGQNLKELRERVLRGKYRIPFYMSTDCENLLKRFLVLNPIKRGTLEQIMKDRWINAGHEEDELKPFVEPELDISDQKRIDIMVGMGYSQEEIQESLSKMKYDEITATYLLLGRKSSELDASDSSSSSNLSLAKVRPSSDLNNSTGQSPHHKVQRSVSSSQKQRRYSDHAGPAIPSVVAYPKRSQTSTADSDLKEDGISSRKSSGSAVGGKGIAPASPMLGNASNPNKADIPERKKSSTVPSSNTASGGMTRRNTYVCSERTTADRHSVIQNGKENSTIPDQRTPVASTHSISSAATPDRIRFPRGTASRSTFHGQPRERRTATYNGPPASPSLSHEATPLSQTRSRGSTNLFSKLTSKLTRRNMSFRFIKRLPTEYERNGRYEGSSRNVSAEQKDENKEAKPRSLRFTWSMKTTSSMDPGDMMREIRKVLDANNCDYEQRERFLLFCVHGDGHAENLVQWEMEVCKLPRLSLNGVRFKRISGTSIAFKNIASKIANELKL
Sequence of UniProt Q8NG66 (whole entry, looked up): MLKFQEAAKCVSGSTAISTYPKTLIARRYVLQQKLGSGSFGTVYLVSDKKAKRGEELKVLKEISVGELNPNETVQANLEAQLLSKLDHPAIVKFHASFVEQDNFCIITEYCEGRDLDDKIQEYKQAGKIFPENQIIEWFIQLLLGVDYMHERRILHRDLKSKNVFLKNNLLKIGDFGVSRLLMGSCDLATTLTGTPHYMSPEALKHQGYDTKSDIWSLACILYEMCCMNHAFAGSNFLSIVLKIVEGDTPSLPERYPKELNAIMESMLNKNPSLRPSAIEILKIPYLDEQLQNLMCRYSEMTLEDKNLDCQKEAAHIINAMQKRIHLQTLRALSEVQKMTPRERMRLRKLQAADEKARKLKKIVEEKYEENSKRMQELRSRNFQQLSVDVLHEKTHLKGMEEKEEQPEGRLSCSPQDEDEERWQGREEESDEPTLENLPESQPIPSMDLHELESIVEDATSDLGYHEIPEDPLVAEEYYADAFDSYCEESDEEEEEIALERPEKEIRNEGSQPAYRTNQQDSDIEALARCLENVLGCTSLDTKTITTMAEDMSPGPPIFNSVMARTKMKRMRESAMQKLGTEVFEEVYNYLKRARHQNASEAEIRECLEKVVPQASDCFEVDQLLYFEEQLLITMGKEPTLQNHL
Sequence of UniProt Q9NRM7 (whole entry, looked up): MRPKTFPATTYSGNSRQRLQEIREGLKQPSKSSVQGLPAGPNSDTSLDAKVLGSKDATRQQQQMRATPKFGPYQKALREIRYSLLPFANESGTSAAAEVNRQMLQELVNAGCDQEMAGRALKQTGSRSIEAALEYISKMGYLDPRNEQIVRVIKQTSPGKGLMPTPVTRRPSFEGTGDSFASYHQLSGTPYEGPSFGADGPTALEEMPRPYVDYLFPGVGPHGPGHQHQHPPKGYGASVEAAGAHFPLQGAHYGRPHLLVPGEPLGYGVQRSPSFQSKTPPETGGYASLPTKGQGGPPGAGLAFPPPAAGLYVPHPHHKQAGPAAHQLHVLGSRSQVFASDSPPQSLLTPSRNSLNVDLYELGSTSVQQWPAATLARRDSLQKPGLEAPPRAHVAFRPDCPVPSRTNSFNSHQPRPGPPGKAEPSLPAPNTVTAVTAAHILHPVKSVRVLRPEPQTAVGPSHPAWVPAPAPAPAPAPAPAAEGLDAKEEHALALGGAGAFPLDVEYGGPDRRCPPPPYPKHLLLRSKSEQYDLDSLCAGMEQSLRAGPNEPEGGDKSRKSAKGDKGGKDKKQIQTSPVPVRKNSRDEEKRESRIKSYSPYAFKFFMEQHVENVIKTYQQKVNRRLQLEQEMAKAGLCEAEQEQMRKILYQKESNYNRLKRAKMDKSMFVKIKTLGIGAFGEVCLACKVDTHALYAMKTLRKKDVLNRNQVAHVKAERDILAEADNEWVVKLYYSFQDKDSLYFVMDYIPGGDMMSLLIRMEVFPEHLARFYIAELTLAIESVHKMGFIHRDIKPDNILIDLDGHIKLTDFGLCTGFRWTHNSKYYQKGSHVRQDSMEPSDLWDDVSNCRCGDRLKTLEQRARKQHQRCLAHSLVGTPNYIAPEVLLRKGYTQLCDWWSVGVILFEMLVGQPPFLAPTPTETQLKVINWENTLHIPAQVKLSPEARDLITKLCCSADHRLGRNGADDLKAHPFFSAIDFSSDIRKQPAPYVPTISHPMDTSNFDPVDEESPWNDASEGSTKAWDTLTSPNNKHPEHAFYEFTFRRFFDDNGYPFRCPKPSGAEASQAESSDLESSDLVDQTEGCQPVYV
Sequence of UniProt Q59H18 (whole entry, looked up): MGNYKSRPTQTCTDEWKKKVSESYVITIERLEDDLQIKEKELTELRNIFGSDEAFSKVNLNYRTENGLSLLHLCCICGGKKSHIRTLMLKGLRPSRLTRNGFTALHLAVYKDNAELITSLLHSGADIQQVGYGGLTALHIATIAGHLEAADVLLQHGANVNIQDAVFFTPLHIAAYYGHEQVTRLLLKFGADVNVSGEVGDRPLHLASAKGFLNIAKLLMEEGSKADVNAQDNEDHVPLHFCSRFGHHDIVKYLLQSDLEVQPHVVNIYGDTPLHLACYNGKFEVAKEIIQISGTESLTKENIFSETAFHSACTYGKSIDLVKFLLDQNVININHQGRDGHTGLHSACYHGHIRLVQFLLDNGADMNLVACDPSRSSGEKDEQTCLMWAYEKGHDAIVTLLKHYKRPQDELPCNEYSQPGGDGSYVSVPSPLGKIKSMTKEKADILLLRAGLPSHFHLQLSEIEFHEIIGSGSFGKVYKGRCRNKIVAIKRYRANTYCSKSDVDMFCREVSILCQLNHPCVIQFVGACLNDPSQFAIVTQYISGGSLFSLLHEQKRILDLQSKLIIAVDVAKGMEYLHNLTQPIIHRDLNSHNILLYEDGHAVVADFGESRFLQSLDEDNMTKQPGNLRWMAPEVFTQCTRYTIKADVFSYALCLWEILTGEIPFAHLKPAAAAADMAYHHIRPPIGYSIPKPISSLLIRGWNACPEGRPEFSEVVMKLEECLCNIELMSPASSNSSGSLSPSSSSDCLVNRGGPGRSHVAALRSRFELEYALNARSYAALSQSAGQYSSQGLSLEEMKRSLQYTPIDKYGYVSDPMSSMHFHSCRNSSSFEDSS
Sequence of UniProt Q8IVW4 (whole entry, looked up): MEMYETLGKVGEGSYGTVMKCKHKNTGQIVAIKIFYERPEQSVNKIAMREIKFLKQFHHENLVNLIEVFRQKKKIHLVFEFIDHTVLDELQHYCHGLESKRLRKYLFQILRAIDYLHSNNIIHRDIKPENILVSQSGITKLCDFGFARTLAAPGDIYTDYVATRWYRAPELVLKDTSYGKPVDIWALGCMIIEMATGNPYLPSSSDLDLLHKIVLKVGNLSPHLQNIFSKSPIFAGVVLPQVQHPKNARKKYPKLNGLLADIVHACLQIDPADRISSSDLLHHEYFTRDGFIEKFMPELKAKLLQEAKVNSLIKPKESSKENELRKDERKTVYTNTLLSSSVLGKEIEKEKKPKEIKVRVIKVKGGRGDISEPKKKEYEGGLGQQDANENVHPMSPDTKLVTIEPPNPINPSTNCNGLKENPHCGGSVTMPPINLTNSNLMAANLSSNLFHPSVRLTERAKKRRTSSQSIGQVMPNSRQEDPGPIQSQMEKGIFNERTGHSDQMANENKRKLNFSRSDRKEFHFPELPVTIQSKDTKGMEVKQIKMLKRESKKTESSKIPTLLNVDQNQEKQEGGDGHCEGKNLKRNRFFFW
Sequence of UniProt Q9HAZ1 (whole entry, looked up): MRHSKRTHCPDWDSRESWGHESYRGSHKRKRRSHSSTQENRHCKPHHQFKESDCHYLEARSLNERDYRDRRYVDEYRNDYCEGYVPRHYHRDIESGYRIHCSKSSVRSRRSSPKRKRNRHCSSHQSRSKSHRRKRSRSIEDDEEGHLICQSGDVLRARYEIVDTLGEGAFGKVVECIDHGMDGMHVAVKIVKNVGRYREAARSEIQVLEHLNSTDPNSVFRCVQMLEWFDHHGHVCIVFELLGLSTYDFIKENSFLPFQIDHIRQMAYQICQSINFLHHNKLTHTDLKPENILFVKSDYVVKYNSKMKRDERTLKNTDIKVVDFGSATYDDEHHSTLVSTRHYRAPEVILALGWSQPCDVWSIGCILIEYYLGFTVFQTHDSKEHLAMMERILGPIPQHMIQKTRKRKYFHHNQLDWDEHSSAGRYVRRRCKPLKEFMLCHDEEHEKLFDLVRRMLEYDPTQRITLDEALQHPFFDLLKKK
Sequence of UniProt P30291 (whole entry, looked up): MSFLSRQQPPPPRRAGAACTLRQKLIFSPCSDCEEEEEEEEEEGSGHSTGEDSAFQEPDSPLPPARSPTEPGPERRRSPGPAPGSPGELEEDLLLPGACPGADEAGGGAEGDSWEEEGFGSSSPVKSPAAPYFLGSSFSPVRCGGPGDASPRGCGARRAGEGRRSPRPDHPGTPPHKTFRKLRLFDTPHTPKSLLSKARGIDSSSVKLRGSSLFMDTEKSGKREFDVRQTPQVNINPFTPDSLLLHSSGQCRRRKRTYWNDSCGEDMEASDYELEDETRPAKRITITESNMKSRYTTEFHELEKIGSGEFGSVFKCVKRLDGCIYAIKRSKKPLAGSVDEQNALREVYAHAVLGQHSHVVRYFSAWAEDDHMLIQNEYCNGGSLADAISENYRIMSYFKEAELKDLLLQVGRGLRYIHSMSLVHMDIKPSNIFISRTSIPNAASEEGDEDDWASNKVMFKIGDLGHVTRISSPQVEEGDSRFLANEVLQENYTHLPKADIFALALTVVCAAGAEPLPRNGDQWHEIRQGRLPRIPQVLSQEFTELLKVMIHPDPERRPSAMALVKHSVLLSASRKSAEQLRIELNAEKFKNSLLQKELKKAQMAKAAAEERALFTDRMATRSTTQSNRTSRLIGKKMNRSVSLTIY

Set 1
Target: RNA binding protein fox-1 homolog 2, RRM domain, GST-SBP tag (RBFOX2, Homo sapiens, UniProt O43251-10, residues 100-194)
Technique: RNA Bind-n-Seq
Molecule type: RNA
Medium: in vitro
Tested at: 365 nM
Notes: natural RNA segment, single round, ends assumed
Baseline: no-protein control
Reading: higher = stronger binding
Constant ends, left off below: GGGAGUUCUACAGUCCGACGAUC … UGGAAUUCUCGGGUGCCAA
Residues (chain): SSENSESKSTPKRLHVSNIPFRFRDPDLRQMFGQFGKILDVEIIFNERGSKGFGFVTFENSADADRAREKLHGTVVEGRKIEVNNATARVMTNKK
Under “RBNS enrichment (R)”, `CCCCCCCACCUCAGCCUCCCAAAGUGCUGGGAUUACAGGCGUGAGGCAUCACACCUGCCUCUGUUGGCUUUUUAGUUAGGAAGGAUCCAGCUAGGCCCGUGUGGUUAGAU` is recorded as 0.269.
For `CCUGGUUGCUAUUCUAAGAAUAAUUAGGAGGAGGAACCUAGCCAAUUGCAGCUCAUGUCCGUGGGUGUGUGCACGGGUGCAUAUGUUGGAAGGGGUGCCUGUCCCCUUGG`, “RBNS enrichment (R)” read 1.62.
Under “RBNS enrichment (R)”, `CCUUGCCCCACCCAUCCCAUCUCCAACCCUAGUCUUCCAUUUCCUCCCGCCAGUCUCCAUUGAAUCAAUGGUGCAGGACAGAAAGCCAGUCAGACUAAUUUCCUUCUUUC` is recorded as 0.662.
For `UGCUGGGUACGCUUCUCUCGUGGGGAAGGGCCGUGUCCAGGCAUGUGGAUGGCUUGAAGACUACUGAUGCUUUCCUCUGAAUUGUUCUUUGCACUGAAGGAGGACUUGGA`, “RBNS enrichment (R)” read 12.9.
Under “RBNS enrichment (R)”, `GCAGAGUUCUAGGUACACCACCCGUCUUAAUAUGGGAGCUCCCAUUCUGUAUCAAAAUGGACUGUUCAUAUCAGAGCUGAGAACUAAAGCACUUCGUUCAUUAUCAGAAA` is recorded as 0.425.
Under “RBNS enrichment (R)”, `UUCAUGCCCCCUUUGACUGAUCAGUGUGAUAAGGACUUUAGGAAAAAAAGCAUGUAUGUUUUUUACUGUUUGUAAUAAGUACUUUCGUUAAUCUUGCUGCUUAUGUGCCA` is recorded as 1.35.
Under “RBNS enrichment (R)”, `GAUCCUGAGGGAAGGGGCAGGGAUUUCUCCUUCUUCUUGGUCCUGGCUCCCAAGGGCUUCUGUCUUCAUCUCUGCAUGAGCUCUCCUUCCCAGAGACCAACUCUUUUUUA` is recorded as 0.699.
`UCCUGUGACAACAGCCAGUUUAGAAAAACUCCCUGUACCCCAGAUCAGUGGAACUGCAACAUCUACUGGAUCAGCUCCAUCCUCAAGCACUUUGCCAGCAGCUUCUAGCC` — result for “RBNS enrichment (R)”: 0.879.

Set 2
SMILES: O=C(N1CCS(=O)(=O)CC1)N1C[C@H](c2ccc(OC(F)(F)F)cc2)C[C@H](c2nc(C3CC3)no2)C1
Technique: competition with immobilised ligand
Tested at: 1 µM
Serine/threonine-protein kinase Nek10 (NEK10, Homo sapiens, UniProt Q6ZWH5); cell-free assay — remaining binding: 81%.
The remaining binding was 100% (Wee1-like protein kinase (WEE1, Homo sapiens, UniProt P30291); cell-free assay).
Homeodomain-interacting protein kinase 3 (HIPK3, Homo sapiens, UniProt Q9H422); cell-free assay — remaining binding: 100%.
The remaining binding was 100% (Protein kinase C iota type (PRKCI, Homo sapiens, UniProt P41743); cell-free assay).
It gave 100% for remaining binding (Serine/threonine-protein kinase Nek11 (NEK11, Homo sapiens, UniProt Q8NG66); cell-free assay).
The remaining binding was 93% (Cyclin-dependent kinase-like 3 (CDKL3, Homo sapiens, UniProt Q8IVW4); binding).
It gave 100% for remaining binding (Serine/threonine-protein kinase LATS2 (LATS2, Homo sapiens, UniProt Q9NRM7); cell-free assay).
Cyclin-G-associated kinase (GAK, Homo sapiens, UniProt O14976); cell-free assay — remaining binding: 100%.
For Serine/threonine-protein kinase/endoribonuclease IRE1 (ERN1, Homo sapiens, UniProt O75460); cell-free assay: remaining binding read 96%.
For Activin receptor type-2A (ACVR2A, Homo sapiens, UniProt P27037); cell-free assay: remaining binding read 98%.
The remaining binding was 100% (Bone morphogenetic protein receptor type-2 (BMPR2, Homo sapiens, UniProt Q13873); cell-free assay).
It gave 98% for remaining binding (MAP/microtubule affinity-regulating kinase 3 (MARK3, Homo sapiens, UniProt P27448); cell-free assay).
The remaining binding was 91% (Serine/threonine-protein kinase PLK1 (PLK1, Homo sapiens, UniProt P53350); cell-free assay).
It gave 100% for remaining binding (Serine/threonine-protein kinase TNNI3K (TNNI3K, Homo sapiens, UniProt Q59H18); cell-free assay).

Set 3
Target: Prothrombin, mature alpha-thrombin (F2, Homo sapiens, UniProt P00734)
Technique: aptamer microarray, sandwich
Molecule type: DNA with 2'F-ANA
Medium: in vitro
Tested at: 200 nM
Notes: whole 15-mer aptamer, many near background
Together with: Cy3 exosite-II aptamer, 400 nM
Reading: higher = stronger binding
Oligonucleotide: GGTTGGTGTGGTTGG
Under “mean fluorescence intensity”, `2'F-ANA at 7 9 10 11 14 15` is recorded as 113 a.u.
`2'F-ANA at 3 5 6 9 12 13 15`: “mean fluorescence intensity” 122 a.u.
`2'F-ANA at 1 2 3 4 6 8 9 15` — result for “mean fluorescence intensity”: 165 a.u.
Under “mean fluorescence intensity”, `2'F-ANA at 3 7 10 11 12 14` is recorded as 538 a.u.
`2'F-ANA at 2 3 7 8 9 10 13 14 15` — result for “mean fluorescence intensity”: 261 a.u.
Under “mean fluorescence intensity”, `2'F-ANA at 4 5 8 12 14 15` is recorded as 77.6 a.u.
For `2'F-ANA at 2 3 5 7 10 12`, “mean fluorescence intensity” read 70.3 a.u.
Under “mean fluorescence intensity”, `2'F-ANA at 1 2 7 9 11 13 14 15` is recorded as 55.3 a.u.

Set 4
SMILES: O=C1C(Cl)=C(N2C(=O)CCC2=O)C(=O)c2ccccc21
Effect on: enzyme activity
Action: inhibitor
Tested at: 0.5 µM
Baseline: control
The remaining activity was 76.5% (Dual specificity mitogen-activated protein kinase kinase 1 (MAP2K1, Homo sapiens, UniProt Q02750)).
The remaining activity was 114% (Dual specificity protein kinase CLK3 (CLK3, Homo sapiens, UniProt P49761)).
Dual specificity protein kinase CLK4 (CLK4, Homo sapiens, UniProt Q9HAZ1) — remaining activity: 94.1%.
Mitogen-activated protein kinase 14 (MAPK14, Homo sapiens, UniProt Q16539) — remaining activity: 88.1%.
It gave 98.6% for remaining activity (Serine/threonine-protein kinase MRCK beta (CDC42BPB, Homo sapiens, UniProt Q9Y5S2)).
Serine/threonine-protein kinase PLK3 (PLK3, Homo sapiens, UniProt Q9H4B4) — remaining activity: 96.6%.

Repeated from above (set 1):
`UCCUGUGACAACAGCCAGUUUAGAAAAACUCCCUGUACCCCAGAUCAGUGGAACUGCAACAUCUACUGGAUCAGCUCCAUCCUCAAGCACUUUGCCAGCAGCUUCUAGCC` — result for “RBNS enrichment (R)”: 0.879.
Under “RBNS enrichment (R)”, `CCUUGCCCCACCCAUCCCAUCUCCAACCCUAGUCUUCCAUUUCCUCCCGCCAGUCUCCAUUGAAUCAAUGGUGCAGGACAGAAAGCCAGUCAGACUAAUUUCCUUCUUUC` is recorded as 0.662.
